Experimental data gathered from unrelated publications.
Each line is one published result; not all experiments were run side by side.

Compound | test | system | conditions | quantity | value
CC(=O)c1c(C)c2cnc(Nc3ccc(C4CCN(CCS(C)(=O)=O)CC4)cn3)nc2n(C2CCCC2)c1=O |  | HR+/HER2- advanced breast cancer patients | oral, 200 mg | patients with TRAE grade ≥3 | 66.7%
Nc1nc2cc(-c3ccc4ncc(C(=O)N5CCOCC5)n4c3)ccc2o1 | measured: Fatigue, any cause, all grades | patients with advanced solid tumours | dose not given | patients with adverse events | 44%
C=CCNc1c(O)cc2c(O)c1C[C@@H](C)C[C@H](OC)[C@H](O)[C@@H](C)/C=C(\C)[C@H](OC(N)=O)[C@@H](OC)/C=C\C=C(/C)C(=O)N2 |  | unresectable or metastatic STS, GIST, other | intravenous, 150 mg/m^2 | patients with fatigue TEAE | 100%
C[C@@H]1OC(=O)NN=C1c1ccc(-c2ccc(F)cc2)c(C(F)(F)F)c1 |  | patients, phase I trial | oral, dose not given, all arms, any grade TEAE | patients with back pain | 20%
N[C@@H]1c2ccccc2OC12CCN(c1cnc3c(N4CCCc5ncccc54)n[nH]c3n1)CC2 |  | advanced solid tumour patients | oral, 100 mg once daily | patients with serious TEAE | 14.3%
CN1CC[C@@H](c2c(O)cc(O)c3c(=O)cc(-c4ccc(C(F)(F)F)cc4Cl)oc23)[C@@H]1CO | measured: Thrombocytopenia | relapsed AML | oral, 200 mg, grade 3-4, intermittent dosing | patients with adverse event | 10%
CO[C@H]1C[C@@H]2CC[C@@H](C)[C@@](O)(O2)C(=O)C(=O)N2CCCC[C@H]2C(=O)O[C@H]([C@H](C)C[C@@H]2CC[C@@H](OC(=O)NCCOCCOCCOCCOCCOCCOCCOCCOCCC(=O)N3CCc4cc(Cn5nc(-c6ccc7oc(N)nc7c6)c6c(N)ncnc65)ccc4C3)[C@H](OC)C2)C[C@@H](O)[C@H](C)/C=C(\C)[C@@H](O)[C@@H](OC)C(=O)[C@H](C)C[C@H](C)/C=C/C=C/C=C/1C | measured: treatment-related mucositis | patients with advanced solid tumours | intravenous, 8 to 12 mg, DM alone without TM, weekly | patients with AE | 65%
O=C1Nc2cc3[nH]nc(-c4ccncc4)c3cc2CN1Cc1ccccc1 | CTCAE v4.03 | advanced solid tumour patients | intravenous, 6.4 mg/kg | patients with dyspepsia | 11%

Excerpt of the above:
Compound | test | system | conditions | quantity | value
CN1CC[C@@H](c2c(O)cc(O)c3c(=O)cc(-c4ccc(C(F)(F)F)cc4Cl)oc23)[C@@H]1CO | measured: Thrombocytopenia | relapsed AML | oral, 200 mg, grade 3-4, intermittent dosing | patients with adverse event | 10%
